Published values from different studies.
Lines come from different studies, so protocols differ. ± marks the error that the study gave.

`COC(=O)[C@H](CC(C)C)NC(=O)[C@@H]1CCCN1C(=O)[C@@H](NC(=O)[C@H](CCC(=O)C=[N+]=[N-])NC(=O)OCc1ccccc1)C(C)C`: “PGC-1α mRNA level” “increased” (wild-type human myoblasts; 50 µM, 2 h).
`CC(C)=CCC/C(C)=C/C[P+](c1ccccc1)(c1ccccc1)c1ccccc1` gave a GI50 of 0.221 µM (A-375; cell growth or viability, MTT; 72 h).
Under cell proliferation, `CCN(CC)CCOc1ccc(-c2nnn(Cc3ccc(OC)cc3)c2N)cc1` is recorded as “decreased” (primary Nf2-deficient mouse tumour cells 184; MTT or WST-8; concentration not given, 3 days).
`C=CCc1ccc(OC(=O)COC(=O)Cn2cnc3c2c(=O)n(C)c(=O)n3C)c(OC)c1` has a TNF-α reduction of 28.8% (RAW264.7; ELISA; 1 µM, together with: LPS; relative to: LPS alone).
With `CNC(=O)c1cc(Oc2ccc(NC(=O)c3cc(-c4cccc(OC(=O)CCC(=O)OC5OC6OC7(C)CCC8C(C)CCC(C5C)C68OO7)c4)ccn3)cc2)ccn1` (stereo not drawn) the selectivity ratio was 3.6 (HepG2 and LO2; cell viability, MTT; 72 h; relative to: IC50 LO2 over IC50 HepG2).
`C[C@@H](O)[C@H](NC(=O)[C@H](CCCCN)NC(=O)CCC(=O)O)C(=O)NCC(=O)N[C@@H](CC(=O)O)C(=O)N[C@@H](CCC(=O)O)C(=O)N[C@@H](CCCCN)C(=O)N[C@@H](CCCCN)C(=O)NCC(=O)NCC(=O)N[C@@H](Cc1ccc(O)cc1)C(=O)NCC(=O)N[C@@H](CCCNC(=N)N)C(=O)N[C@@H](CCCCN)C(=O)N[C@@H](CCCCN)C(=O)N[C@@H](CCCNC(=N)N)C(=O)N[C@@H](CCCNC(=N)N)C(=O)N[C@@H](CCC(N)=O)C(=O)N[C@@H](CCCNC(=N)N)C(=O)N[C@@H](CCCNC(=N)N)C(=O)N[C@@H](CCCNC(=N)N)C(N)=O`: “caspase-3 positive cells” 1.94% (Huh-7; apoptosis, flow cytometry; 40 µM, 16 h).
The spheroid volume of `CC[C@@]1(O)C(=O)OCc2c1cc1n(c2=O)Cc2cc3cc(OC(=O)CCCC(=O)NCC(=O)N[C@@H](Cc4ccccc4)C(=O)N[C@@H](Cc4ccccc4)C(=O)N[C@@H](Cc4ccc(OP(=O)(O)O)cc4)C(=O)NCC(=O)N[C@@H](CCC(=O)O)C(=O)N[C@@H](CCCNC(=N)N)C(=O)NCC(=O)N[C@@H](CC(=O)O)C(=O)O)ccc3nc2-1` is reported as roughly 50% (HepG2 spheroids; 100 µM, 7 days; relative to: initial).
`C=CCc1cc(OC)c(OC)c(OC)c1OC` gave a GI50 of greater than 250 µM (T47D; cell growth or viability, MTT; 72 h).
With `Cc1cc(C)c(-n2ccn(-c3c(C)cc(C)cc3C)c2=[Se])c(C)c1.[Cl][Au]` the resistance factor was 0.8 (A2780 ADR; MTT; relative to: A2780 ADR over A2780).
With `CCCc1cc(OC)c2c(c1)OCO2` the GI50 was greater than 250 µM (DU-145; cell growth or viability, MTT; 72 h).
For `CC(C)[C@]12O[C@H]1[C@@H]1O[C@]13[C@]1(O[C@H]1C[C@H]1c4c(C(=O)c5ccccc5)oc(OC(=O)c5ccccc5)c4CC[C@@]13C)[C@@H]2O`, the IC50 ratio was 2.9 (MV4-11; cell viability; 72 h; relative to: compound over triptolide).
The cell uptake of `O=C(O)CCC(NP(=O)(O)OCCC[C@@H](NC(=O)CCC(NC(=O)CCCCCNC(=O)CCCCCNC(=O)c1ccc([18F])cc1)C(=O)O)C(=O)O)C(=O)O` (stereo partly drawn) is reported as 2.28 ± 0.14% (CWR22Rv1; 1 h).
`CC(=O)N[C@@H](CCCNC(=N)N)C(=O)N[C@@H](CCCNC(=N)N)C(=O)N[C@@H](CCCNC(=N)N)C(=O)N[C@@H](CCCNC(=N)N)C(=O)N[C@@H](CCCNC(=N)N)C(=O)N[C@@H](CCCNC(=N)N)C(=O)N[C@@H](CCCNC(=N)N)C(=O)N[C@@H](CCCNC(=N)N)C(=O)N[C@@H](CCCNC(=N)N)C(=O)N[C@@H](CCCNC(=N)N)C(=O)NCC(=O)N[C@@H](COP(=O)(O)O)C(=O)N1CCC[C@H]1C(=O)N[C@H](C(=O)N[C@@H](Cc1ccccc1)C(=O)O)[C@@H](C)O` — result for “reduction of HR activity”: roughly 40% (U2OS-DR; homologous recombination, GFP reporter; 100 µM, 2 h, then 48 h recovery).
For `CCC[P+](c1ccccc1)(c1ccccc1)c1ccccc1`, the GI50 was 10.2 µM (A-375; cell growth or viability, MTT; 72 h).
`COC[C@@H](NC(C)=O)C(=O)NCc1ccc(-c2cccc(OC(F)(F)F)c2)cc1`: “use-dependent Na+ current” “decreased” (CAD; inhibitor; concentration not given).
`CCCc1cc(OC)c(OC)c(OC)c1OC` gave a GI50 of greater than 250 µM (T47D; cell growth or viability; 72 h).
The CC50 of `COc1ccccc1/C=C/[N+](=O)[O-]` is reported as 1.26 µM (MV4-11; cell growth or viability; 72 h).
`CCCCCN[C@H]1C=C[C@]2(O[C@H]([C@@H](CC)C(=O)[C@@H](C)[C@@H](O)[C@H](C)[C@@H]3O[C@@H]([C@@H](CC)C(=O)O)CC[C@@H]3C)[C@@H](C)C[C@H]2C)O[C@@]12CC[C@@](C)([C@H]1CC[C@](O)(CC)[C@H](C)O1)O2` has a selectivity ratio of 10.8 (HMLER CD24low/CD44high; cell viability, CellTiter-Blue; 72 h; relative to: IC50 HMLER CD24high/CD44low over CD24low/CD44high).
For `CSCC[C@H](NC(=O)[C@H](CC(C)C)NC(=O)CNC(=O)[C@H](Cc1ccccc1)NC(=O)[C@H](Cc1ccccc1)NC(=O)[C@H](CCC(N)=O)NC(=O)[C@H](CCC(N)=O)NC(=O)[C@@H]1CCCN1C(=O)[C@H](CCCCN)NC(=O)[C@@H]1CCCN1C(=O)[C@@H](N)CCCNC(=N)N)C(N)=O`, the EC25 was 15 ± 2.3 µM (rat peritoneal mast cells; histamine release; 10 min, 37 °C, together with: 2 mM CaCl2).
`[Cl][Au].[Se]=c1n(C2CCCCC2)ccn1C1CCCCC1` gave a resistance factor of 0.7 (A2780 ADR; MTT; relative to: A2780 ADR over A2780).
With `C[P+](c1ccccc1)(c1ccccc1)c1ccccc1` the GI50 was 1.56 µM (DU-145; cell growth or viability, MTT; 72 h).
`CCOC(=O)CCCCC[C@@H]1NC(=O)[C@H]2CCCCN2C(=O)[C@H]([C@@H](C)CC)NC(=O)[C@H](Cc2c[nH]c3ccccc23)NC1=O` gave an H3K9 acetylation of roughly 2.1 fold increase (iPSC-derived neural progenitor cells; western blot; 1 µM, 18 h; relative to: vehicle).
With `CC1(C)CC([n+]2cc([NH-])on2)CC(C)(C)N1O` the EC50 was 20.3 µM (primary human trabecular meshwork cells; cGMP level increase, enzyme immunoassay; 30 min).
`CC[C@H](C)[C@H](NC(=O)[C@H](Cc1ccccc1)NC(=O)[C@H](CC(=O)O)NC(=O)[C@H](CCCCN)NC(=O)[C@H](C)NC(=O)[C@H](CCCCN)NC(=O)[C@H](CC(N)=O)NC(=O)[C@H](CC(C)C)NC(=O)[C@H](Cc1c[nH]c2ccccc12)NC(=O)[C@H](CCC(=O)O)NC(=O)[C@H](CCCCN)NC(=O)[C@H](Cc1c[nH]c2ccccc12)NC(=O)CNC(=O)[C@H](C)N)C(=O)N[C@@H](CCCCN)C(=O)N[C@@H](CCC(=O)O)C(=O)N[C@@H](CCCCN)C(=O)NCC(=O)N[C@@H](CC(C)C)C(=O)NCC(=O)N[C@@H](CCSC)C(=O)N[C@@H](CC(C)C)C(=O)N[C@@H](CO)C(=O)N[C@@H](C)C(=O)N[C@@H](C)C(=O)N[C@@H](C)C(=O)N[C@@H](CC(N)=O)C(=O)N[C@@H](C)C(=O)N[C@@H](C)C(=O)N[C@@H](CC(C)C)C(=O)N[C@@H](CC(N)=O)C(=O)O` gave an EC50 of greater than 100 µM (HEK293 cells; intracellular calcium, FLIPR; 0.1% BSA).
`CC(C)CC(O)(CC(C)C)c1cn(C(=O)N2CCCC2)nn1` gave a protein level of 1.04 ± 0.01 (mouse T-cells; SILAC proteomics, measured: SKP1A; 1 nM, 6 h, unit not given; relative to: DMSO).
`CCCc1cc(OC)c2c(c1OC)OCO2` gave a GI50 of 167 µM (A-375; cell growth or viability, MTT; 72 h).
`Cc1nc(C)c(C=[N+]([O-])C(C)(C)C)nc1C` gave a cell viability of 24.1% (primary rat midbrain neurons; MTT; 300 µM, together with: MPP+; relative to: MPP+ alone, increase).
Under “number of inhibited genes”, `CN1C(=O)C2(Cc3ccc(CC45SSC(CO)(C(=O)N4C)N(C)C5=O)cc3)SSC1(CO)C(=O)N2C` (racemic) is recorded as 4 (MCF7; microarray; 600 nM, of 43 deferoxamine-induced genes ≥4-fold inhibited ≥2-fold, together with: deferoxamine).
The selectivity ratio of `CCCCCCCCCCCCN(CCCCCCCCCCCC)[C@H]1C=C[C@]2(O[C@H]([C@@H](CC)C(=O)[C@@H](C)[C@@H](O)[C@H](C)[C@@H]3O[C@@H]([C@@H](CC)C(=O)O)CC[C@@H]3C)[C@@H](C)C[C@H]2C)O[C@@]12CC[C@@](C)([C@H]1CC[C@](O)(CC)[C@H](C)O1)O2` is reported as 5.2 (HMLER CD24low/CD44high; cell viability, CellTiter-Blue; 72 h; relative to: IC50 HMLER CD24high/CD44low over CD24low/CD44high).
`O=C(c1cccc(I)c1)N1CCN(C(=O)c2cc(Cc3n[nH]c(=O)c4ccccc34)ccc2F)CC1` [iodine-123 labelled] has an EC50 of 0.022 µM (HCT-116 p53-/-; cell viability, Alamar Blue; 4 days).
For `CNC(=O)c1cc(Oc2ccc(NC(=O)c3ccc(-c4cccc(COC(=O)CCC(=O)OC5OC6OC7(C)CCC8C(C)CCC(C5C)C68OO7)c4)cn3)cc2)ccn1` (stereo not drawn), “S phase cells” read 39% (Huh-7; PI staining, flow cytometry; concentration not given, 24 h).
`C=C1C(=O)O[C@H]2[C@H]1CCC(COC(=O)c1cc(C(F)(F)F)cc(C(F)(F)F)c1)=C1CC[C@@](C)(O)[C@@H]12` gave a CC50 of 4.1 µM (M9-ENL1 leukaemia cells; annexin V/7-AAD flow cytometry; 24 h, 5% human plasma).
`CC[C@H](C)[C@H](NC(=O)[C@H](Cc1ccccc1)NC(=O)[C@H](CC(=O)O)NC(=O)[C@H](CCCCN)NC(=O)[C@H](C)NC(=O)[C@H](CCCCN)NC(=O)[C@H](CC(N)=O)NC(=O)[C@H](CC(C)C)NC(=O)[C@H](Cc1c[nH]c2ccccc12)NC(=O)[C@H](CCC(=O)O)NC(=O)[C@H](CCCCN)NC(=O)[C@@H](NC(=O)CNC(=O)[C@H](C)N)[C@@H](C)O)C(=O)N[C@@H](CCCCN)C(=O)N[C@@H](CCC(=O)O)C(=O)N[C@@H](CCCCN)C(=O)NCC(=O)N[C@@H](CC(C)C)C(=O)N[C@@H](CCC(=O)O)C(=O)N[C@@H](CCSC)C(=O)N[C@@H](CC(C)C)C(=O)N[C@@H](CO)C(=O)N[C@@H](C)C(=O)N[C@@H](C)C(=O)N[C@@H](C)C(=O)N[C@@H](CC(N)=O)C(=O)N[C@@H](C)C(=O)N[C@@H](C)C(=O)N[C@@H](CC(C)C)C(=O)N[C@@H](CC(N)=O)C(=O)O` has an EC50 of greater than 100 µM (F11 cells; intracellular calcium, FLIPR; 0.1% BSA).
`N=C(N)Nc1ccc(-c2nc3ccc(-c4ccc5nc(-c6ccc(NC(=N)N)cc6)[nH]c5c4)cc3[nH]2)cc1` — result for NOVA-regulated splicing: “no effect” (sample A patient fibroblasts; concentration not given).
The GI50 of `COc1cc(C)c(OC)c2c1OCO2` is reported as greater than 250 µM (T47D; cell growth or viability; 72 h).
For `CC/C=C\C/C=C\C/C=C\C/C=C\C/C=C\C/C=C\CCC(=O)Nc1ccn(C2OC(CO)C(O)C2(F)F)c(=O)n1` (stereo not drawn), the CC50 was 56.1 µM (UACC-257; NCI60 screen).

Some of these lines once more:
Under cell proliferation, `CCN(CC)CCOc1ccc(-c2nnn(Cc3ccc(OC)cc3)c2N)cc1` is recorded as “decreased” (primary Nf2-deficient mouse tumour cells 184; MTT or WST-8; concentration not given, 3 days).
`C=CCc1ccc(OC(=O)COC(=O)Cn2cnc3c2c(=O)n(C)c(=O)n3C)c(OC)c1` has a TNF-α reduction of 28.8% (RAW264.7; ELISA; 1 µM, together with: LPS; relative to: LPS alone).
With `CNC(=O)c1cc(Oc2ccc(NC(=O)c3cc(-c4cccc(OC(=O)CCC(=O)OC5OC6OC7(C)CCC8C(C)CCC(C5C)C68OO7)c4)ccn3)cc2)ccn1` (stereo not drawn) the selectivity ratio was 3.6 (HepG2 and LO2; cell viability, MTT; 72 h; relative to: IC50 LO2 over IC50 HepG2).
`C[C@@H](O)[C@H](NC(=O)[C@H](CCCCN)NC(=O)CCC(=O)O)C(=O)NCC(=O)N[C@@H](CC(=O)O)C(=O)N[C@@H](CCC(=O)O)C(=O)N[C@@H](CCCCN)C(=O)N[C@@H](CCCCN)C(=O)NCC(=O)NCC(=O)N[C@@H](Cc1ccc(O)cc1)C(=O)NCC(=O)N[C@@H](CCCNC(=N)N)C(=O)N[C@@H](CCCCN)C(=O)N[C@@H](CCCCN)C(=O)N[C@@H](CCCNC(=N)N)C(=O)N[C@@H](CCCNC(=N)N)C(=O)N[C@@H](CCC(N)=O)C(=O)N[C@@H](CCCNC(=N)N)C(=O)N[C@@H](CCCNC(=N)N)C(=O)N[C@@H](CCCNC(=N)N)C(N)=O`: “caspase-3 positive cells” 1.94% (Huh-7; apoptosis, flow cytometry; 40 µM, 16 h).
The spheroid volume of `CC[C@@]1(O)C(=O)OCc2c1cc1n(c2=O)Cc2cc3cc(OC(=O)CCCC(=O)NCC(=O)N[C@@H](Cc4ccccc4)C(=O)N[C@@H](Cc4ccccc4)C(=O)N[C@@H](Cc4ccc(OP(=O)(O)O)cc4)C(=O)NCC(=O)N[C@@H](CCC(=O)O)C(=O)N[C@@H](CCCNC(=N)N)C(=O)NCC(=O)N[C@@H](CC(=O)O)C(=O)O)ccc3nc2-1` is reported as roughly 50% (HepG2 spheroids; 100 µM, 7 days; relative to: initial).
